Results collected from several papers.
Lines come from different studies, so protocols differ. ± marks the error that the study gave.
Cell line: Caco-2

`Cc1ccc(CCC(=O)Nc2nnc(S(N)(=O)=O)s2)cc1` — result for “Papp B to A”: 13.8 ×10⁻⁶ cm/s.
With `CC(C)NCC(O)COc1cccc2ccccc12` (stereo not drawn) the recovery was 90% (transwell permeability; 5 µM, 1 h).
`C=C(F)C(=O)N1CCN(c2nc(OC[C@@H]3CCCN3C)nc3c2CCN(c2cccc4cccc(Cl)c24)C3)C[C@@H]1CC#N` gave an apparent permeability of 6.84 ×10⁻⁶ cm/s (13.2 µM).
For `CC(C)NCC(O)COc1cccc2ccccc12` (stereo not drawn), the recovery was 66.8% (5 µM, 2 h, apical to basolateral).
`C[C@]12CC[C@@H]3c4ccc(OS(=O)(=O)O)cc4CC[C@H]3[C@@H]1CCC2=O` — result for “Papp (A to B)”: 0.367 ×10⁻⁶ cm/s (no inhibitor, BCRP (novobiocin) set).
With `C1CCc2c(c(N3CCOCC3)nc3sc4c(N5CCNCC5)nnnc4c23)C1` the Papp A-B was 5.88 ×10⁻⁶ cm/s (10 µM, 120 min, pH 7.4, without inhibitor).
For `CC(C)NCC(O)COc1cccc2ccccc12` (stereo not drawn), the Papp(A-B) was 16.9 ± 0.645 ×10⁻⁶ cm/s (2 µM, 120 min, pH 7.4).
`CC(=O)OCc1cc2[nH]c(=S)n(Cc3cccnc3)c(=O)c2cc1Cl`: “Papp (B to A)” 0.1 ×10⁻⁶ cm/s (10 µM, 90 min, pH 7.4, 0.1% BSA receiver side).
With `COc1nc(NCc2cn(-c3ccc(C(N)=O)cc3)nn2)nc(OC)n1` the selectivity ratio was 0.02 (MTT; reference: normal rat colonocytes over Caco-2).
Under “Papp (B to A)”, `O=c1c2cc(Cl)ccc2[nH]c(=S)n1Cc1ccc(-c2nnn[nH]2)nc1` is recorded as 5.5 ×10⁻⁶ cm/s (10 µM, 90 min, pH 7.4, 0.1% BSA receiver side).
`C[C@H]1CN(C)CCN1c1nccc(-c2noc3c2CCC[C@@]32CCCc3sc(N)c(C#N)c32)n1` — result for “Papp (A to B)”: 20 ×10⁻⁶ cm/s.
`CCCCOC(=O)c1ccc(O)cc1` has a hydrolysed compound of 52.1 ± 5.6% (5 µM, 60 min, A-B direction).
For `COc1nc(NCc2cn(-c3ccc(NC(=O)c4ccc(C)cc4)cc3)nn2)nc(OC)n1`, the selectivity ratio was 0.03 (MTT; reference: normal rat colonocytes over Caco-2).
With `N#C[C@@]1(c2ccc3c(N)ncnn23)O[C@H](CO)[C@@H](O)[C@H]1O` the recovery was 102% (bidirectional permeability; 10 µM, 120 min; basolateral to apical).
With `C=CC(=O)Nc1cc(Nc2nccc(-c3cn(C)c4ccccc34)n2)c(OCC(F)(F)F)nc1N(C)CCN(C)C` the intestinal permeability was 0.53 ×10⁻⁶ cm/s.
Under “Papp A-B mean”, `CO[C@@H](C[C@H]1C(C)=CC[C@@H]2[C@]3(C)C[C@H](O[C@@H]4O[C@@H](C)[C@H](OC(=O)c5cccc(O)c5)[C@@H](O[C@@H]5O[C@H](CO)[C@@H](O)[C@H](O)[C@H]5NC(C)=O)[C@H]4O)[C@@H](O)C(C)(C)[C@H]3CC[C@]21C)[C@H](N)C(=O)O.O=C(O)C(F)(F)F` is recorded as 0.01 ×10⁻⁶ cm/s (5 µM, 1 h).
`CCOc1nc(-c2cccc(O)c2)cc(-c2cc3cc(Cl)ccc3nc2N2CCOCC2)c1C#N` has a selectivity ratio of 0.248 (MTT; 72 h, 10% FBS; reference: WI-38 EC50 over Caco-2 IC50).
With `CC[C@H](C)C(=O)N1CCC(NC(=O)Nc2ccc(OC(F)(F)F)c(F)c2)CC1` the percent recovery was 40% (Caco-2 permeability; 10 µM, 60 min, pH 7.4 apical, 7.4 basolateral, replicate 2, added: verapamil; apical to basolateral).
`C[C@H]1O[C@@H](O[C@H]2[C@@H](O)C[C@H](O[C@H]3[C@@H](O)C[C@H](O[C@H]4CC[C@@]5(C)[C@H](CC[C@@H]6[C@@H]5C[C@@H](O)[C@]5(C)[C@@H](C7=CC(=O)OC7)CC[C@]65O)C4)O[C@@H]3C)O[C@@H]2C)C[C@H](O)[C@@H]1O` has a recovery of 87% (5 µM, 2 h, apical to basolateral).
`O=C(O)c1ccc(O)cc1` gave a parent remaining of ≤ 22% (5 µM, 60 min, total recovered amount).
The Papp of `C=CC(=O)N(C)CCOc1c(N)ncnc1-c1cc(F)cc(NC(=O)c2ccc(C3CC3)cc2F)c1C` is reported as 17 ×10⁻⁶ cm/s (100 µg/mL, passive permeability with efflux inhibitors).
The Papp A-B of `CNC(=C[N+](=O)[O-])NCCSCc1ccc(CN(C)C)o1` is reported as < 1 ×10⁻⁶ cm/s (10 µM, 2 h).
For `COc1nc(NCc2cn(-c3ccc(NC(=O)c4ccc(F)cc4)cc3)nn2)nc(OC)n1`, the selectivity ratio was 0.02 (MTT; reference: normal rat colonocytes over Caco-2).
`C#Cc1c(F)ccc2cc(O)cc(-c3ncc4c(N5CC6CCC(C5)N6)nc(OC[C@@]56CCCN5C[C@H](F)C6)nc4c3F)c12` — result for “Papp (B to A)”: 7.84 ×10⁻⁶ cm/s (no inhibitor, BCRP (novobiocin) set).
`CN(C)CC(=O)OCc1cc2[nH]c(=S)n(Cc3cccnc3)c(=O)c2cc1Cl`: “Papp (B to A)” 2.2 ×10⁻⁶ cm/s (10 µM, 90 min, pH 7.4, 0.1% BSA receiver side).
For `Nc1n[nH]c2nc(-c3cccc(O)c3)cc(-c3cc4cc(Cl)ccc4nc3N3CCOCC3)c12`, the selectivity ratio was 0.696 (MTT; 72 h, 10% FBS; reference: WI-38 EC50 over Caco-2 IC50).
For `CC(C)NCC(O)COc1cccc2ccccc12` (stereo not drawn), the Papp was 30.7 ± 0.4 ×10⁻⁶ cm/s (pH 7.4).
For `O=C(Nc1c2c(cc3c1CCC3)CCC2)NS(=O)(=O)/C=C/c1nccs1`, the Papp(B-A) was 10.8 ×10⁻⁶ cm/s (2 µM, 120 min, pH 7.4).
`O=C(O)C=Cc1ccc(O)cc1` has a recovery of 89% (Transwell mass balance; 1 mM, time not given, apical to basolateral).
`COc1nc(NCc2cn(-c3ccc(NC(=O)c4ccc([N+](=O)[O-])cc4)cc3)nn2)nc(OC)n1` gave a selectivity ratio of 0.01 (MTT; reference: normal rat colonocytes over Caco-2).
The Papp A-B of `CN(C)C/C=C/C(=O)Nc1cc2c(Nc3ccc(F)c(Cl)c3)ncnc2cc1O[C@H]1CCOC1` is reported as ~2.6 ×10⁻⁶ cm/s (100 µM, 3 h).
`CC(C)C[C@@H]1NC(=O)[C@H](C)NC(=O)[C@H](Cc2ccccc2)NCC2=CC=C(CN(C)C1=O)O2` gave a Papp of 9.1 ×10⁻⁶ cm/s.
`O=C(Nc1ccc(CN2CCOCC2)c(C(F)(F)F)c1)c1ccc(C#Cc2cccc3cnccc23)cn1` has a recovery of 92.9% (5 µM, 120 min, B-to-A, basolateral dosing).
For `CC[C@H]1OC(=O)[C@H](C)[C@@H](O[C@H]2C[C@@](C)(OC)[C@@H](O)[C@H](C)O2)[C@H](C)[C@@H](O[C@@H]2O[C@H](C)C[C@H](N(C)C)[C@H]2O)[C@](C)(O)C[C@@H](C)C(=O)[C@H](C)[C@@H](O)[C@]1(C)O`, the mass balance was 106 ± 13.8% (60 min, basolateral to apical).
`CS(=N)(=O)c1ccc(C(F)(F)F)cc1` (stereo not drawn) has a Papp(A-B) of 88 ×10⁻⁶ cm/s.
`CCCCC(CC)COC(=O)c1ccc(O)cc1` (stereo not drawn) gave a hydrolysed compound of 8.9 ± 1.5% (5 µM, 60 min, A-B direction).
`NS(=O)(=O)c1nnc(NC(=O)CCC2CC3CCC2C3)s1` (stereo not drawn): “Papp A to B” 8.7 ×10⁻⁶ cm/s.
For `C[C@@H]1CCN(C(=O)CC#N)C[C@@H]1N(C)c1ncnc2[nH]ccc12`, the Papp A-B was 11.8 ×10⁻⁶ cm/s (5 µM, 120 min).
`COc1nc(NCc2cn(-c3ccc(C(=O)Nc4ccc(Br)cc4)cc3)nn2)nc(OC)n1` has a selectivity ratio of 0.15 (MTT; reference: normal rat colonocytes over Caco-2).
